Results pooled from the literature.
Each line is one published result; not all experiments were run side by side. ± gives the spread as reported.

COc1ccc2c(c1OC)C(C(Cl)(Cl)Cl)N1CCc3cc4c(cc3C1=C2)OCO4 (stereo not shown)
ALT activity (rat, STZ-induced diabetic, serum; oral, 12 mg/kg, day 28): 79 ± 2.5 U/L

COc1c2c(cc3oc(COC4OC(CO)C(O)C(O)C4O)cc(=O)c13)OC(C(C)(C)O)C2 (stereo not shown)
hot plate latency (analgesia; mouse; oral, 4 mg/kg, 2 h): 12.4 ± 1.31 s

CC[C@H](C)[C@@H]1NC(=O)[C@H](Cc2ccc(O)cc2)NC(=O)[C@@H](N)CSSC[C@@H](C(=O)NCC(=O)N[C@@H](CCCCNC(=O)COCCOCCNC(=O)COCCOCCNC(=O)CC[C@H](NC(=O)CC[C@H](NC(=O)CCCCCCCCCCCCCCCCC(=O)O)C(=O)O)C(=O)O)C(=O)NCC(N)=O)NC(=O)[C@H](CC(N)=O)NC(=O)[C@H](CCC(N)=O)NC1=O
onset of significant weight loss (C57BL/6 mice, diet-induced obese; subcutaneous, 2 µmol/kg daily): 9 days

C[C@@H](O)[C@@H]1NC(=O)[C@H](CCCCN)NC(=O)[C@@H](Cc2ccc(NC(N)=O)cc2)NC(=O)[C@H](Cc2ccc(NC(=O)[C@@H]3CC(=O)NC(=O)N3)cc2)NC(=O)[C@H](NC(=O)[C@H](Cc2ccc(Cl)cc2)NC(=O)CN2CCN(CC(=O)O)CCN(CC(=O)O)CCN(CC(=O)O)CC2)CSSC[C@@H](C(=O)N[C@H](Cc2ccc(O)cc2)C(N)=O)NC1=O [gallium-68 labelled]
highest lesion SUVmax (whole-body PET/CT; neuroendocrine tumour patients; 60 min post-injection): ≤ 94

Cc1cc(N)c2ccccc2[n+]1CCCCCCCCCCCCCC[n+]1c(C)cc(N)c2ccccc21
tumour weight (NOD/SCID mice, SK-N-AS xenograft; 2.5 mg/kg; relative to: vehicle): no effect

Cc1nc(C)c(C=[N+]([O-])C(C)(C)C)nc1C
protein level increase (Western blot, item: HO-1; mouse, MPTP model, substantia nigra cytosol; 30 mg/kg): 39.4%

CC(C)(C)ONc1nc(Nc2ccnc(C(F)(F)F)c2)nc(-c2cccc(C(F)(F)F)n2)n1
2-HG level (item: 2-hydroxyglutarate; mouse U-87 MG IDH2 R140Q xenograft, tumour; oral, 54.14 mg/kg, up to 0.5 h): 34 ng/mg

COc1ccc2nc(C)ccc2c1Nc1sn(C)c(=O)c1C#N
protection of SNAP amplitude (tail sensory nerve conduction; mouse, paclitaxel neuropathy model; oral, 300 mg/kg daily, 9 days post-paclitaxel, added: paclitaxel; relative to: vehicle): 44.7 ± 12.9%

CC(C)c1cnc(-c2cc(Cl)ccc2F)cc1Nc1ccncc1C(=O)NC(CO)CO
inhibition (flow cytometry, item: pSMAD2/3; patients, peripheral monocytes; 500 mg): ~90%

COc1ccc(C2CC(c3ccc(C)cc3)=Nc3ccccc3S2)cc1 (stereo not shown)
blood glucose (Wistar rat, STZ-induced diabetes; oral, 20 mg/kg once daily, day 7): 235 ± 4.61 mg/dL

CC(C)(O)c1ccc(N2Cc3c(ccnc3-c3ccc(F)cc3OCC(F)(F)F)C2=O)cc1
glucosylceramide level (Gaucher disease mouse model, brain; 30 mg/kg, single dose; relative to: vehicle): 41 ± 2%

O=C([O-])CN1CCN(CC(=O)[O-])CCN(CC(=O)NC[C@H]2CC[C@H](C(=O)N[C@H](Cc3cnc4ccccc4c3)C(=O)NCCCC[C@H](NC(=O)N[C@@H](CCC(=O)O)C(=O)O)C(=O)O)CC2)CCN(CC(=O)[O-])CC1.[64Cu+2]
mean SUVmax (PET/CT; patients suspected prostate cancer, primary tumours; 2 h post-injection): 22.9 ± 14.9

COc1cc2c(NC3CCN(C(C)C)CC3)cc(N3CCOCC3)nc2cc1OCCCN1CCCC1
sEPSC amplitude (synaptic transmission; 5xFAD mice, dentate granule cells; dose not given, chronic treatment): no effect

O=C(NCCCCc1ccccc1)n1c(=O)oc2cc(-c3ccc(F)cc3)ccc21
lung long-chain ceramide levels (mouse, lung; intraperitoneal, 10 mg/kg, 3 h): no effect

COc1cccc(OCCN2CCC[C@H](CN3CCc4cc(OC)c(OC)cc4CC3=O)C2)c1
firing rate (VTA dopamine neurons, stress-naive male mice; intraperitoneal, 1 mg/kg; relative to: baseline): no effect

CCCCCCCOC(=O)Cc1c(C)n(C(=O)c2ccc(Cl)cc2)c2ccc(OC)cc12
latency of nociceptive response (hot plate test; BALB/c mice; 100 mg/kg, 30 min): 16.6 ± 0.56 s

COc1cc(O)c(Cl)cc1/C=C/C(=O)c1ccc(C(F)(F)F)cc1
protein level (immunofluorescence, item: occludin and ZO-1; mouse DSS colitis, intestine; dose not given): increased

CC[C@@H](C)[C@H]1NC(=O)[C@@H]([C@H](C)O)NC(=O)[C@@H](Cc2c[nH]cn2)NC(=O)CNC(=O)[C@@H](CCCNC(=N)N)NC(=O)CNC(=O)[C@@H](Cc2ccccc2)NC1=O
retinal vascular permeability (Evans blue; mouse, STZ diabetic for 6 weeks; eye drop, 0.5% once daily, 5 days): decreased

N[C@@H](Cc1c[nH]cn1)C(=O)N1CCC[C@H]1C(=O)NCC(=O)NCC(=O)O
ΔG‡ at 298.15 K (diketopiperazine formation, Arrhenius plot, ESI-MS; 1-propanol; 70, 80, 90 °C, 0.5% acetic acid): 95 ± 3 kJ/mol

COc1ccc2c(c1)c(CC(=O)OCOC(C)=O)c(C)n2C(=O)c1ccc(Cl)cc1
latency of nociceptive response (hot plate test; BALB/c mice; 75 mg/kg, 30 min): 15.7 ± 1.24 s

C[C@H](NC(=O)COC(=O)[C@H](C)NC(=O)CO)C(=O)O
depolymerization rate constant (water; pH 6, 37 °C): 0.516 h⁻¹

CC(=O)N[C@@H](CC1CCCCC1)C(=O)N[C@H]1CSSC[C@@H](C(=O)N[C@@H](CCCNC(=N)N)C(N)=O)NC(=O)[C@H](CC2CCCCC2)NC(=O)[C@H](CCCNC(=N)N)NC(=O)[C@H](CCCNC(=N)N)NC(=O)[C@H](CC2CCCCC2)NC(=O)[C@H](CC(C)C)NC(=O)[C@H](CCCNC(=N)N)NC(=O)[C@@H](NC(=O)[C@H](CC2CCCCC2)NC(C)=O)CSSC[C@@H](C(=O)N[C@@H](CCCNC(=N)N)C(N)=O)NC(=O)[C@H](CC2CCCCC2)NC(=O)[C@H](CCCNC(=N)N)NC(=O)[C@H](CCCNC(=N)N)NC(=O)[C@H](CC2CCCCC2)NC(=O)[C@H](CC(C)C)NC(=O)[C@H](CCCNC(=N)N)NC1=O
SPR response increase (surface plasmon resonance; POPC/POPE membrane; concentration not given; relative to: cardiolipin-rich 10% over POPC/POPE only): 50%

CC1=CCC23OC2(C)CCC2C(CN(C)C)C(=O)OC2C13.Cl (stereo not shown)
inhibition of early lung metastasis (in vivo; dose not given, unit not given; relative to: compound over vinblastine): 2

CC=C1C(OC2OC(CO)C(O)C(O)C2O)OC=C(C(=O)OC)C1CC(=O)OCC1OC(OCCc2ccc(O)cc2)C(O)C(O)C1O (stereo not shown)
spleen to body weight ratio (BALB/c mouse, orthotopic colon 26 tumour; oral, 109.2 mg/kg daily, 10 days; relative to: untreated tumour group): decreased

C=C(c1ncc(C(=O)O)cn1)c1cc2c(cc1C)C(C)(C)CCC2(C)C
log2 fold change (RNA sequencing, item: Cyp26a1 mRNA; rat, brain; dose not given, 24 h, single dose; relative to: vehicle): -0.088

C[C@@H](N)C1CCN(S(=O)(=O)c2cccc3cnccc23)CC1
hemorrhage score (spontaneously hypertensive rat, transient MCAO; intraperitoneal, 10 mg/kg, scale 0-2; direction not given): 0.43

[64Cu+2].c1cnc(CNCc2ccc(CN3CCCN4CCNCCCN(CC4)CC3)cc2)nc1
tissue uptake (CXCR4; NOD/SCID mouse, U87 and U87-stb-CXCR4 xenografts, heart; iv, 30 min, ex vivo): 2.03 ± 0.15 %ID/g

CC(CCC(=O)NCc1ccc(C(=O)NO)cc1)C1CCC2C3C(O)CC4CC(O)CCC4(C)C3CCC12C (stereo not shown)
increase in primary cilium length (PCK rats, liver cystic cholangiocytes; dose not given; relative to: untreated): 64%

CNc1oc(-c2cccc3ccccc23)nc1C#N
beta-cell mass (CD1 mice; ip, 24 mg/kg daily, 2 weeks): no effect

N=C(N)NCCC[C@H](N)C(=O)N1CCC[C@H]1C(=O)NCC(=O)NCC(=O)O
ΔG‡ at 298.15 K (diketopiperazine formation, Arrhenius plot, ESI-MS; 1-propanol; 70, 80, 90 °C, 0.5% acetic acid): 97 ± 8 kJ/mol

Cc1cc2c(cc1C1(c3ncc(C(=O)O)cn3)CC1)C(C)(C)CCC2(C)C
log2 fold change (RNA sequencing, item: Cav1 mRNA; rat, brain; dose not given, 24 h, single dose; relative to: vehicle): -0.07

A few entries again:
CC1=CCC23OC2(C)CCC2C(CN(C)C)C(=O)OC2C13.Cl (stereo not shown)
inhibition of early lung metastasis (in vivo; dose not given, unit not given; relative to: compound over vinblastine): 2

COc1cc2c(NC3CCN(C(C)C)CC3)cc(N3CCOCC3)nc2cc1OCCCN1CCCC1
sEPSC amplitude (synaptic transmission; 5xFAD mice, dentate granule cells; dose not given, chronic treatment): no effect

CNc1oc(-c2cccc3ccccc23)nc1C#N
beta-cell mass (CD1 mice; ip, 24 mg/kg daily, 2 weeks): no effect

C[C@H](NC(=O)COC(=O)[C@H](C)NC(=O)CO)C(=O)O
depolymerization rate constant (water; pH 6, 37 °C): 0.516 h⁻¹

Cc1cc(N)c2ccccc2[n+]1CCCCCCCCCCCCCC[n+]1c(C)cc(N)c2ccccc21
tumour weight (NOD/SCID mice, SK-N-AS xenograft; 2.5 mg/kg; relative to: vehicle): no effect
